Results of several laboratories.
Every numbered part comes from another study and shows a few of its results, in no order. Positions count from the first letter of the parent shown.

Study 1
Target: CCNA1, cyclin fold, Cln2 fusion (human)
Technique: yeast growth competition, sequencing
Matrix: yeast
Setting: weak parent motif
Reference: not given
Reading: higher = stronger binding
Parent: viral docking peptide; PTARRRLLHDLDT; partner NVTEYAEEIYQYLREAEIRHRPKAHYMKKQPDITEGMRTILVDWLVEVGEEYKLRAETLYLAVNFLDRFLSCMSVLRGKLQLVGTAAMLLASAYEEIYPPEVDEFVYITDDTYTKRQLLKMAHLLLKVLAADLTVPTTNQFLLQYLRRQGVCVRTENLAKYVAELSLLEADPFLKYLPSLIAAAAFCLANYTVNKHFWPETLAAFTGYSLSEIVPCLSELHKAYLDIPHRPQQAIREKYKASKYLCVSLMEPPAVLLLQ
Substitution | normalised enrichment score
PTARRRLLHDLAT [D12A] | 0.0574
PTARKRLLFDLDT [R5K H9F] | 1.48
PTARRRLLHDADT [L11A] | 0.338
PTARRRLLFDLDT [H9F] | 1.36
PTARAAAAHDLDT [R5A R6A L7A L8A] | 0.144
ATARRRLLHDLDT [P1A] | 0.42
PTARRRALHDLDT [L7A] | 0.154
PTARRRLLADLDT [H9A] | 0.625
PTARRRLFHDLDT [L8F] | 1.52
PTARRALLHDLDT [R6A] | 0.527

Study 2
Substitution: F124C
Target: ABI1, truncated, D143A, DHFR fusion (Arabidopsis thaliana)
Technique: DHFR PCA, deep sequencing
Matrix: yeast
Setting: methotrexate growth selection, single substitutions
Reference: wild-type fitted maximum
Reading: higher = stronger binding
Parent: PYL1, truncated, DHFR fusion (Arabidopsis thaliana); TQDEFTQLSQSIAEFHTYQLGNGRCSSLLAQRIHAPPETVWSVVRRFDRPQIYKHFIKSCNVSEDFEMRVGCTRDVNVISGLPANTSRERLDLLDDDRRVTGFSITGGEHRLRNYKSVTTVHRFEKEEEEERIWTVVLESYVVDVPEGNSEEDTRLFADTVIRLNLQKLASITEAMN; partner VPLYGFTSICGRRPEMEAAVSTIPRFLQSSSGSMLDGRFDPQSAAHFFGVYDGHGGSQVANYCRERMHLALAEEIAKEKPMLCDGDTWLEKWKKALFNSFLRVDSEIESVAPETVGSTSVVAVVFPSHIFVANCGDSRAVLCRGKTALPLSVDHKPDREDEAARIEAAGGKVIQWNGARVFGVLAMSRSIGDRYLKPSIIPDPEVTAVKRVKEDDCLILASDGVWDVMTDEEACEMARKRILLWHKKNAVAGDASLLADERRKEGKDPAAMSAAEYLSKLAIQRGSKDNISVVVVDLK
together with | relative binding score [%]
(+)-ABA 0.0091 µM | 25.6
(+)-ABA 17 µM | 93.5
(+)-ABA 200 µM | 109
(+)-ABA 4.8 µM | 72.4
(+)-ABA 0.39 µM | 34.4
(+)-ABA 1.4 µM | 52.2

Study 3
Target: Ras GTPase-activating protein-binding protein 1, RRM domain (G3BP1, Homo sapiens, UniProt Q13283)
UniProt Q13283, sequence (whole entry, looked up): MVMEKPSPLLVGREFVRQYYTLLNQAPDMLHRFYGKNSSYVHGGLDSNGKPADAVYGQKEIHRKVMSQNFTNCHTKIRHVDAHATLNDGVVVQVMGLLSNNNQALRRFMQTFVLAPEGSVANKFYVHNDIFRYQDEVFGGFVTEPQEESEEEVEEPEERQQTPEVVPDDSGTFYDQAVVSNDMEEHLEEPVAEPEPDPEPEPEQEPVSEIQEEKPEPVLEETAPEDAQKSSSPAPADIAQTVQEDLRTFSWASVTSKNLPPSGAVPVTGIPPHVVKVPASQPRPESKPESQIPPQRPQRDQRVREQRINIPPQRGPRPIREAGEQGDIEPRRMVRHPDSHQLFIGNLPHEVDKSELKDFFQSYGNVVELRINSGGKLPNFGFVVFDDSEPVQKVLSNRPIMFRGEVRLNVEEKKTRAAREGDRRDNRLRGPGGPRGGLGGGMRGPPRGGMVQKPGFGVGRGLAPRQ
Technique: RNA Bind-n-Seq
Form: RNA
Matrix: in vitro
Tested at: 1 µM
Setting: whole 134-nt RNA, ends assumed
Together with: 150 mM KCl
Reference: input library
Reading: higher = stronger binding
Sequence | log2 enrichment
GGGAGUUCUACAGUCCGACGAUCUUCAAAGCGUUCGAAUGAGGAGACUGAUGACUAUGGGAAGGCGCAGGUAGCCAAAAGCAGCAGCAAGGAAUCCAGGUCAUCCAAGCUCCAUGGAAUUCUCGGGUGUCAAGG | -0.25
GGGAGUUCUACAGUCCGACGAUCUCAAGUCCUGUGCUACACAUCGUAUGUACCGAAUCGGAGGUUUUUGGUUUUUGGAAAGUAUUAUGUUACGCCGUUCGGAUCUGCACUUCCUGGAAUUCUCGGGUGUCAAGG | -0.265
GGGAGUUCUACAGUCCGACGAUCUCAAGUCCUGUGCUACACAUCGUAUGUACCGAAUCGGUGGUUUUUUUGGUUUGGAAAGUAUUAUGUUACGCCGUUCGGAUCUGCACUUCCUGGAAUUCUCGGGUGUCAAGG | -0.26
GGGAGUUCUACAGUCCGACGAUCUGGGAGGUGGAUUUUGUUUAUUUUUUUAGCUCAUUUCCAGGGGUGGGAAUUUUUUUUUGAUAUGUGUCAUGAAUAAAGUUGUUUUUGAAAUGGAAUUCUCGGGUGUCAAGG | 1.87
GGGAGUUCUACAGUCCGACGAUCUUCCAGGCUCAAGCACGGACAUCAGUGAGGACUGGGAGAAAGACUUUGACUUGGACAUGACUGAAGAGGAGGUGCAGAUGGCACUUUCCAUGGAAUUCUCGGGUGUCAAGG | -0.0633
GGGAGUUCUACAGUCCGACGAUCCAAGUCCUGUGCUACACAUCGUAUGUACCGAAUCGGGGAAAGGGAAAGGAAAGGGAAAGUAUUAUGUUACGCCGUUCGGAUCUGCACUUCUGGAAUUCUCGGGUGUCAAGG | -0.145
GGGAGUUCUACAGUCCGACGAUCUCCUGUGCUACACAUCGUAUGUACCGAAUCGGAAAAAAAGGAAAAAAAGGAAAAAAAGGGAAAGUAUUAUGUUACGCCGUUCGGAUCUGCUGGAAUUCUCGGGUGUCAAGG | 0.0781
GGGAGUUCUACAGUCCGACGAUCCAAGUCCUGUGCUACACAUCGUAUGUACCGAAUCGGUGGAAAAAGGAAAAAAAGGAAAGUAUUAUGUUACGCCGUUCGGAUCUGCACUUCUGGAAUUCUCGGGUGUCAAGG | 0.0444

Further values, each from its own experiment
Molecule | target | test | system | setting | how to read | endpoint | value
PhoQ, residues 284 288 289 292 302 303 SVHLDV | PhoP, residues 12 14 15 18 19 DLLYY (Escherichia coli, UniProt P23836) | Sort-seq, measured: YFP reporter | E. coli | PhoQ-PhoP variant library, together with: 10 µM Mg2+ | reference: high Mg2+ state, higher = stronger signaling | fold induction | 2.07

Some of these lines once more (study 1):
Substitution | normalised enrichment score
PTARRRLLHDLAT [D12A] | 0.0574
ATARRRLLHDLDT [P1A] | 0.42
